# Published values from different studies.
# Protocols differ between the studies behind these lines. “And” joins repeats or separate records; there may be more than shown. ± marks the error that the study gave.
# B1: recombinant human GDNF; sequence looked up; chain SPDKQMAVLPRRERNRQAAAANPENSRGKGRRGQRGKNRGCVLTAIHLNVTDLGLGYETKEELIFRYCSGSCDAAETTYDKILKNLSRNRRLVSDKVGQACCRPIAFDDDLSFLDDNLVYHILRKHSAKRCGCI
# B2: prolactin-inducible protein, human; sequence looked up; chain QDNTRKIIIKNFDIPKSVRPNDEVTAVLAVQTELKECMVVKTYLISSIPLQGAFNYKYTACLCDDNPKTFYWDFYTNRTVQIAAVVDVIRELGICPDDAAVIPIKNNRFYTIEILKVE
# B3: interferon gamma; sequence looked up; chain QDPYVKEAENLKKYFNAGHSDVADNGTLFLGILKNWKEESDRKIMQSQIVSFYFKLFKNFKDDQSIQKSVETIKEDMNVKFFNSNKKKRDDFEKLTNYSVTDLNVQRKAIHELIQVMAELSPAAKTGKRKRSQMLFRG
Substance,target or system,assay,test system,conditions,how to read,endpoint,result
liraglutide,,,"Wistar rat, female, diet-induced obese","subcutaneous, dose not given, 4 weeks treatment",,body weight,556 ± 46 g
B1 (recombinant human GDNF),,"cell counting on sections, item: tyrosine hydroxylase","rat, 6-OHDA lesion model, substantia nigra pars compacta, intact side",3 µg/24 h,,TH-immunoreactive cell count,1270 ± 89.4
cotadutide,,"metabolomics, item: hepatic tryptophan","ob/ob mice on AMLN diet, NASH model, liver",dose not given,,metabolite level,1.03 ± 0.07 scaled intensity
heparin sodium,,,human,"intravenous infusion, 8 IU/kg/h, day 1 to 6",,aPTT Emax,39.6 s
B2,CYB5R4 knockout human cells,"PP6 interaction, 3xFLAG-PP6C IP-MS",,concentration not given,relative to: CYB5R4 KO over parental,log2 fold change,0.68
B3 (interferon gamma),,proteinuria inducer,FVB mice,"dose not given, 24 h",,urine albumin/creatinine ratio,14.4 and 27.3 and 20.6 and 12.2 and 13.3 and 17.3 and 27 and 13.7
difelikefalin,,,Japanese haemodialysis patients with pruritus,"intravenous, 0.25 µg/kg, 8 weeks",,PGIC minimally worse,0%
semaglutide,,,"Wistar rat, male, diet-induced obese","subcutaneous, increasing doses once daily, 45 days",relative to: vehicle,body weight reduction,-14.7%
spindlin-1 (human),PP6C (human),"co-immunoprecipitation, IP-MS",CYB5R4 knockout cells,concentration not given,relative to: CYB5R4 knockout over parental,log2 fold change,-0.27
colistin,Pseudomonas aeruginosa,broth microdilution,clinical isolate RKI-No_579/15,,,MIC,1 µg/mL
maraviroc,,"Western blot, item: GSK-3β phospho-Ser9","mice, NSG hu-PBL, HIV-infected, somatosensory cortex","i.p., 120 mg/kg twice daily, 3 weeks post infection, normalised to total GSK-3β","relative to: HIV-infected untreated mice, increase",protein level,4.68 fold

# Some of these lines once more:
Substance,target or system,assay,test system,conditions,how to read,endpoint,result
maraviroc,,"Western blot, item: GSK-3β phospho-Ser9","mice, NSG hu-PBL, HIV-infected, somatosensory cortex","i.p., 120 mg/kg twice daily, 3 weeks post infection, normalised to total GSK-3β","relative to: HIV-infected untreated mice, increase",protein level,4.68 fold
